Published values gathered from unrelated publications.
Each line is one published result; not all experiments were run side by side. Values joined by “and” are separate records of one study, mostly repeats; a detail may differ. Numbers after ± are the reported error.

CNCc1ccc(-c2[nH]c3cc(F)cc4c3c2CCNC4=O)cc1
viability (HBL-1; 0.5 µM, 120 h): 128%

Nc1cccc2c1C(=O)N(C1CCC(=O)NC1=O)C2=O (stereo not drawn)
viability (MM1.S; XTT; 1.5 µM): 16% and 31% and 29%

COc1ccc(CCc2nc3cc(-c4c(C)noc4C)ccc3n2C[C@H](C)N2CCOCC2)cc1Cl
viability (HBL-1; 1 µM, 120 h): 93.9%

COc1cc2ncnc(Nc3ccc(Oc4ccccc4)c(C)c3C)c2cc1OC
viability (NCI-H2087 (BRAF L597V); resazurin; 0.3 µM, 72 h, together with: trametinib; relative to: DMSO): 95.5%

Cc1cccc(-c2[nH]c(CNc3ccccc3F)nc2-c2ccc3ncnn3c2)n1
viability (MM1.S; XTT; 1.5 µM; relative to: untreated): 44%

O=P(O)(O)C(O)(Cn1ccnc1)P(=O)(O)O
viability (MDA-MB-231; AlamarBlue; 7.5 µM, 48 h; relative to: control): 95 ± 1%

Nc1cccc2c1CN(C1CCC(=O)NC1=O)C2=O (stereo not drawn)
viability (bone marrow CD138+ myeloma cells; XTT; 3 µM, mean of three patients): 4%

NC(=O)c1cccc(N)c1
viability (HBL-1; 0.5 µM, 120 h): 118%

COc1cc2ncnc(Nc3ccc(Oc4ccccc4)cc3C)c2cc1OC
viability (NCI-H2087 (BRAF L597V); resazurin; 1 µM, 72 h, together with: trametinib 0 nM): 80.3%

Some of these lines once more:
COc1ccc(CCc2nc3cc(-c4c(C)noc4C)ccc3n2C[C@H](C)N2CCOCC2)cc1Cl
viability (HBL-1; 1 µM, 120 h): 93.9%
